# Published values collected from several papers.
# Lines come from different studies, so protocols differ. Numbers after ± are the reported error.
SMILES,assay,system,setting,scale,measurement,value
C[C@H]1CN(C(=O)CC#N)[C@]12CCN(c1ncnc3[nH]ccc13)C2,,dog female,"oral, 0.6 mg/kg repeated daily, 9 months, repeated-dose toxicity study",,AUC at NOAEL,1510 ng·h/mL
Cc1ccc(OS(=O)(=O)O)cc1,ultrafiltration,normal rat serum,37 °C,,serum protein binding,95 ± 3%
COc1cc2c(Oc3ccc4[nH]c(C)cc4c3F)ccnc2cc1OCC1(N)CC1,,paediatric recurrent refractory sarcoma,8 mg/kg,,grade 3 Hypothyroidism,0%
CCc1ccc(CC/C=C/c2ccc3c(c2)C(=O)CC3)cc1,,"Sprague-Dawley rat, male, blood","oral, 120 mg/kg/day, 14 days",,mean platelet volume,11.4 fL
C[C@]1(CO)Cc2ncn(-c3ccc(C#N)c(Cl)c3)c2C(=O)O1,,"human, plasma","5 mg single dose, geometric mean",,AUC(0-inf),1.05 µM·h
CC[C@H](C)CCCCC(=O)N[C@@H](CCN)C(=O)N[C@H](C(=O)N[C@@H](CCN)C(=O)N[C@H]1CCNC(=O)[C@H]([C@@H](C)O)NC(=O)[C@H](CCN)NC(=O)[C@H](CCN)NC(=O)[C@H](CC(C)C)NC(=O)[C@@H](Cc2ccccc2)NC(=O)[C@H](CCN)NC1=O)[C@@H](C)O,,"critically ill patients, AKI, plasma","intravenous, 150 mg/day, median",,Cmax steady state,7600 ng/mL
CNC(=O)c1cc(Oc2ccc(NC(=O)Nc3cc(C(C)(C)C)nn3-c3ccc4ncccc4c3)c(F)c2)ccn1,"viral cardiomyopathy, NCI CTC v3.0",human patients,"oral, all dose levels",,related SAE,2%
O=C(Nc1ccccc1)C1CCN(C(=O)Oc2cccnc2)CC1,psychotropic effects VAS,healthy women,100 mg,"baseline: pre-dose baseline, direction not given",change in High score,3.3
CN(C(=O)n1cnc(-c2ccc[n+]([O-])c2)c1)C1CCCCC1,,"Wistar rat, hippocampus","oral, 10 mg/kg, 24 h, single dose",,concentration,10 ± 1.3 ng/g
C[C@@H](NC(=O)N1C(=O)[C@H](Cc2ccnc(N)c2)[C@H]1C(=O)O)C1CCCCC1,,healthy adult Chinese volunteers,"continuous intravenous infusion, 1.0 mg/kg/h, 5-day infusion, CTCAE 5.0 grading",,incidence of AEs leading to death,0%
C=CC(=O)Nc1cc(Nc2nccc(Nc3cc(Cl)c(F)cc3C(C)(C)O)n2)c(OC)cc1N1CC[C@@H](N(C)C)C1,treatment-emergent adverse events,human,"oral, 200 mg, phase I clinical trial",,incidence of weight decreased,0%
O=C1Nc2cc3[nH]nc(-c4ccncc4)c3cc2CN1Cc1ccccc1,CTCAE v4.03,advanced solid tumour patients,"intravenous, 0.45 mg/kg, schedules 1/2",,patients with dizziness,100%
CC(O)CN1CCN(CC(=O)[O-])CCN(CC(=O)[O-])CCN(CC(=O)[O-])CC1.[Gd+3] (centres unmarked),LC-ICP-MS,human plasma,"pH 7.4, 37 °C",,dissociation rate,0.014 %/day
Cn1c(-c2ccc(C(N)=O)cc2F)nnc1C(C)(C)Oc1c(F)cc(Cl)cc1F,,human,"oral, 10 mg, single ascending dose",,vessel puncture site pain,0%

# For quick reference, copied from above:
SMILES,assay,system,setting,scale,measurement,value
O=C(Nc1ccccc1)C1CCN(C(=O)Oc2cccnc2)CC1,psychotropic effects VAS,healthy women,100 mg,"baseline: pre-dose baseline, direction not given",change in High score,3.3
Cn1c(-c2ccc(C(N)=O)cc2F)nnc1C(C)(C)Oc1c(F)cc(Cl)cc1F,,human,"oral, 10 mg, single ascending dose",,vessel puncture site pain,0%
